Results collected from several papers.
Lines come from different studies, so protocols differ. ± gives the spread as reported.
Urease: Urease (Canavalia ensiformis, UniProt P07374)
SNCA pre-formed fibrils: Alpha-synuclein, pre-formed fibrils (SNCA, Homo sapiens, UniProt P37840)
PDE1C: Dual specificity calcium/calmodulin-dependent 3',5'-cyclic nucleotide phosphodiesterase 1C (PDE1C, Homo sapiens, UniProt Q14123)
crk3 with CYC6: crk3, with CYC6 (Leishmania mexicana, UniProt O15851)
MAL12: Alpha-glucosidase MAL12 (MAL12, Saccharomyces cerevisiae S288c, UniProt P53341)
Proteasome subunit beta type-10: Proteasome subunit beta type-10 (Homo sapiens, UniProt P40306)
SYK tandem SH2 domains: Tyrosine-protein kinase SYK, tandem SH2 domains (SYK, Homo sapiens, UniProt P43405)
DNA polymerase catalytic subunit: DNA polymerase catalytic subunit (Human cytomegalovirus, UniProt P08546)
PTGS1: Prostaglandin G/H synthase 1 (PTGS1, Ovis aries, UniProt P05979)

| SMILES | target | assay | system | setting | IC50 [µM] |
| --- | --- | --- | --- | --- | --- |
| COc1cc(OC)c(/N=N/c2ccc(C(=O)NO)c(F)c2)c(OC)c1 | Urease | enzyme activity, inhibitor, absorbance | – | pH 7.3 | 88 |
| CCN1/C(=C/C(C)=O)Sc2ccc(F)cc21 | Alpha-1B adrenergic receptor (Adra1b, Rattus norvegicus, UniProt P15823) | ligand displacement, radioligand | – | – | > 30 |
| CN1CCC(n2cc(-c3cccc4cc(NC(=O)Nc5ccc(C(=O)NO)cc5)ccc34)cn2)CC1 | SNCA pre-formed fibrils | binding to mouse LAG3 D1, inhibitor, ELISA | – | with: FLAG-α-syn PFFs 100 nM | 1.04 |
| N=C(c1ccc([N+](=O)[O-])o1)N1CCC(NC(=O)c2cc(-c3ccc(F)cc3F)on2)(c2nc3ccccc3[nH]2)CC1 | Stimulator of interferon genes protein (STING1, Homo sapiens, UniProt Q86WV6, H232R) | reporter gene | – | – | 1.52 |
| CN1CCC(CNc2nc3c(cnn3C(C)(C)C)c(=O)n2Cc2cccc(F)c2)CC1 | PDE1C | enzyme activity, inhibitor, radiometric | – | – | 0.118 |
| CN1CCN(c2ccc3cc(NC(=O)Nc4cccc(C(=O)NO)c4)ccc3c2)CC1 | SNCA pre-formed fibrils | binding to RAGE, inhibitor, ELISA | – | with: FLAG-α-syn PFFs 100 nM | 4.9 |
| CC(=O)Nc1cc(-c2c(F)cccc2F)[nH]n1 | crk3 with CYC6 | enzyme activity, inhibitor, radiometric | – | with: Leishmania major CYC6 cyclin, 1 µM ATP | 9 |
| CN1CCN(c2ccc3cc(COC(=O)Nc4cccc(C(=O)NO)c4)ccc3c2)CC1 | SNCA pre-formed fibrils | binding to mouse LAG3 D1, inhibitor, ELISA | – | with: FLAG-α-syn PFFs 100 nM | 0.535 |
| CCCCCCCCN(Cc1ccc(CNC(=O)OCCOC23CC4CC(C2)CC(C(N)C(=O)N2C(C#N)CC5CC52)(C4)C3)cc1)CC(O)C(O)C(O)C(O)CO (stereo not drawn) | Dipeptidyl peptidase 8 (Homo sapiens, UniProt Q6V1X1) | enzyme activity, inhibitor | – | with preincubation | 1.3 |
| CC(C)(COC(=O)/C=C/c1ccc(Cl)cc1)CC1=C(O)C(=O)c2ccccc2C1=O | MAL12 | enzyme activity, inhibitor | – | – | 17.6 |
| CN1C=C(C(N)=O)[C@@H]2C[C@H](O)[C@@](NC(=O)CS(N)(=O)=O)(C(=O)O)[C@@H]2C1 | Carbonic anhydrase 1 (CA1, Homo sapiens, UniProt P00915) | enzyme activity, inhibitor, absorbance | – | – | 25 |
| CC(C)C[C@H](NC(=O)[C@H](Cc1ccc(CN)cc1)NC(=O)[C@H](Cc1ccccc1)N=[N+]=[N-])C(=O)N[C@@H](CC1CCC(C2CCCCC2)CC1)C(=O)[C@@]1(C)CO1 (stereo partly drawn) | Proteasome subunit beta type-10 | inhibitor, biochemical | – | – | 3.62 |
| O=C(Cc1ccc(OCc2ccccc2)cc1)NC1(C(=O)O)CCN(C(=O)c2ccc(-c3cccc(Cl)c3)cc2)CC1 | C-X-C chemokine receptor type 5 (CXCR5, Homo sapiens, UniProt P32302) | antagonist, GloSensor cAMP | – | – | > 10 |
| CN1CCC(n2cc(-c3ccc4cc(NC(=O)Nc5cccc(C(=O)NO)c5)ccc4c3)cn2)CC1 | SNCA pre-formed fibrils | binding to mouse LAG3 D1, inhibitor, ELISA | – | with: FLAG-α-syn PFFs 100 nM | 1.45 |
| COc1cc(OC)c(/N=N/c2ccc(C(=O)NO)cc2F)c(OC)c1 | Urease | enzyme activity, inhibitor, absorbance | – | pH 7.3 | 38 |
| COc1c(Cl)cccc1Nc1c(-c2ccncc2C#C[C@@]2(C)CCCN2C(=O)/C=C/CN(C)C)[nH]c2c1C(=O)NCC2 | Mitogen-activated protein kinase 8 (MAPK8, Homo sapiens, UniProt P45983) | – | – | – | > 3 |
| CC(C)c1nc(S)n(C)n1 | SYK tandem SH2 domains | binding, inhibitor, TR-FRET | – | with: FITC-FCER1G phospho-ITAM peptide | 5.41 ± 0.06 |
| COc1ccc(N2CCN(Cc3cn4c(-c5ccc(Br)cc5)nnc4s3)CC2)cc1 | Aifm2 (Mus musculus, UniProt Q8BUE4, A354T/L360F) | enzyme activity, inhibitor | – | 1 h, with: CoQ1, NADPH | 0.552 |
| Cc1ccc(NS(=O)(=O)c2c(C)[nH]c(C)c2C(=O)N2CCCC2)cc1 | D(2) dopamine receptor (DRD2, Homo sapiens, UniProt P14416) | – | – | – | > 100 |
| Cc1nn(-c2cccc(N)c2)c(=O)c2cnc(Nc3ccc(N4CCNCC4)cc3)nc12 | Leucine-rich repeat serine/threonine-protein kinase 2 (LRRK2, Homo sapiens, UniProt Q5S007, G2019S) | enzyme activity, inhibitor | – | – | > 10 |
| Cc1ccccc1-c1cc(CN2c3ccccc3C=Cc3ccccc32)on1 | Urease | enzyme activity, inhibitor | – | – | 8.64 |
| CCC1(CC)CC(=O)N(C2c3cc(C(=O)NC4c5ccccc5CC4O)ccc3OC2(C)COC)C(=N)N1 (stereo not drawn) | Potassium voltage-gated channel subfamily KQT member 1, with KCNE1 (KCNQ1, Homo sapiens, UniProt P51787) | IKs current, inhibitor, automated patch clamp | HEK293 | – | > 30 |
| O=C(Nc1cc(-c2c(F)cccc2F)[nH]n1)c1ccccc1 | crk3 with CYC6 | enzyme activity, inhibitor, radiometric | – | with: Leishmania major CYC6 cyclin, 1 µM ATP | 3 |
| Cn1c(=O)c2c([nH]c(=O)n2C)n(C)c1=O | SYK tandem SH2 domains | binding, inhibitor, TR-FRET | – | with: FITC-FCER1G phospho-ITAM peptide | > 100 |

| SMILES | target | assay | system | setting | IC50 [µM] |
| --- | --- | --- | --- | --- | --- |
| c1cncc(-c2cnn3ccc(Nc4ccc(N5CCOCC5)cc4)nc23)c1 | crk3 with CYC6 | enzyme activity, inhibitor, radiometric | – | with: Leishmania major CYC6 cyclin, 1 µM ATP | 0.54 |
| CC(=O)N(C)CCN1CCN(c2cnc3c(cc(C(=O)NCc4ccc(Cl)cc4)c(=O)n3CC(=O)N3CC(C)(F)C3)n2)C1=O | DNA polymerase catalytic subunit | enzyme activity, inhibitor | – | – | 0.839 |
| CCn1nc(Cl)c2c1-c1cnc(N)c(c1)O[C@H](C)c1cc(F)ccc1-c1nn(C)cc1C2 | Tyrosine-protein kinase Fer (FER, Homo sapiens, UniProt P16591) | enzyme activity, inhibitor, radiometric | – | – | 0.058 |
| COc1cc(C(c2c(O)c3ccccc3oc2=O)c2c(O)c3ccccc3oc2=O)ccc1OCc1cn(CC(=O)Nc2ccccc2Br)nn1 | MAL12 | enzyme activity, inhibitor | – | – | 28.8 |
| COc1cc(NC(=O)c2cnn(-c3ccc([N+](=O)[O-])cc3)c2C(F)(F)F)c(OC)cc1Cl | PTGS1 | enzyme activity, inhibitor | – | – | 0.46 |
| COc1cc(O)cc(CCc2ccc(OC)c(O)c2CC=C(C)C)c1 | rat intestinal maltase | inhibitor | rat intestinal acetone powder | 10 min, 37 °C, with: maltose 10 mM | 860 ± 90 |
| O=C(Nc1cc(-c2ccc(Cl)cc2)[nH]n1)c1cccc(O)c1 | crk3 with CYC6 | enzyme activity, inhibitor, radiometric | – | with: Leishmania major CYC6 cyclin, 1 µM ATP | 1.1 |
| CC(Nc1nc2c(cnn2C(C)(C)C)c(=O)n1Cc1cccc(F)c1)c1ccccn1 (stereo not drawn) | PDE1C | enzyme activity, inhibitor, radiometric | – | – | 0.0032 |
| CC(C)C[C@H](NC(=O)[C@H](Cc1ccc(CN)cc1)NC(=O)[C@H](Cc1ccccc1)N=[N+]=[N-])C(=O)N[C@H](C(=O)[C@@]1(C)CO1)C1CCCCC1 | Proteasome subunit beta type-10 | enzyme activity, inhibitor | – | lysate | 4.79 |
| COc1cc(F)c(-c2cc(Cn3cnc4c(N)ncnc43)c(N3CCC[C@](N)([C@H](O)C(F)F)C3)cn2)cc1F | Histone-lysine N-methyltransferase SETD2 (SETD2, Homo sapiens, UniProt Q9BYW2) | enzyme activity, inhibitor | – | – | 7.63 |
| COc1cc(OC)c2c(=O)cc(-c3cc(C)c(OCCCN4CCN(C)CC4)c(C)c3)oc2c1 | Bromodomain-containing protein 2, BD2 (BRD2, Homo sapiens, UniProt P25440) | cell-free assay, TR-FRET | – | – | 1.16 |
| O=C(COC(=O)c1ccccc1Nc1cccc(C(F)(F)F)c1)Nc1cccc(C(F)(F)F)c1 | PTGS1 | enzyme activity, inhibitor | – | – | 99.9 |
| CCN(CC)CC(=O)Nc1cccc(-n2cc(-c3ccc4ccc(-c5cn(-c6cccc(NC(=O)CN(CC)CC)c6)nn5)cc4c3)nn2)c1 | Serine/threonine-protein kinase PAK 2 (PAK2, Homo sapiens, UniProt Q13177) | enzyme activity, inhibitor | – | – | > 10 |
| CC(=O)N[C@H]1[C@H]([C@H](O)[C@H](O)CNC(=O)c2ccc(-c3ccccc3)cc2)O[C@@](OCc2cccc(Cl)c2Cl)(C(=O)O)C[C@@H]1O | B-cell receptor CD22 (CD22, Homo sapiens, UniProt P20273) | ligand binding, inhibitor, competitive bead binding flow cytometry | – | with: 6'SLN(Gc)-PAA-biotin beads | 1.24 ± 0.13 |
| Clc1ccc(-c2cc(CN3c4ccccc4C=Cc4ccccc43)on2)cc1 | Urease | enzyme activity, inhibitor | – | – | 7.32 |
| [C-]#[N+]CCCCCCOc1ccc2c(-c3ccccc3C(=O)OCC)c3ccc(=O)cc-3oc2c1 | Polyunsaturated fatty acid lipoxygenase ALOX15 (ALOX15, Homo sapiens, UniProt P16050) | enzyme activity, inhibitor, absorbance | – | – | 29.3 |
| CC(=O)N1c2ccc(-c3ccc(CNC(=O)c4cn5cc(-c6cnc(N)nc6)nc(N6CCOCC6)c5n4)cc3)cc2CC[C@@H]1C | Serine-protein kinase ATM (ATM, Homo sapiens, UniProt Q13315) | enzyme activity, inhibitor, radiometric | – | – | > 10 |
| Cc1cncn1Cc1ccc(Oc2cccc(Cl)c2)cc1 | Glutaminyl-peptide cyclotransferase (QPCT, Homo sapiens, UniProt Q16769) | – | – | – | 0.008 |
| C1=Cc2ccccc2N(Cc2cc(-c3ccccc3)no2)c2ccccc21 | Urease | enzyme activity, inhibitor | – | – | > 27 |
| CN1CCCN(c2cnc3c(cc(C(=O)NCc4ccc(Cl)cc4)c(=O)n3CC(=O)N3CC(C)(F)C3)n2)C1=O | DNA polymerase catalytic subunit | enzyme activity | – | single determination | 3.04 |
| CC(C)(COC(=O)/C=C/c1ccc2c(c1)OCO2)CC1=C(O)C(=O)c2ccccc2C1=O | MAL12 | enzyme activity, inhibitor | – | – | 28.8 |
| Cc1cccc(-c2cc(CN3c4ccccc4C=Cc4ccccc43)on2)c1 | Urease | enzyme activity, inhibitor | – | – | 9.48 |
| COc1ccc(CNc2nc3c(cnn3C(C)(C)C)c(=O)n2Cc2cccc(F)c2)cn1 | PDE1C | enzyme activity, inhibitor, radiometric | – | – | 0.0042 |
| CCOc1cc(CN2CCC3(CC2)CN(c2ccc(C(=O)O)cc2)C(=O)N3)c(C2CC2)cc1C | Somatostatin receptor type 5 (SSTR5, Homo sapiens, UniProt P35346, L174A) | cAMP level, antagonist, GloSensor | AD293 | L174A mutant, bandwidth 4.60, with: CST17 EC80 and forskolin | 0.0191 |

Repeated from above:
| SMILES | target | assay | system | setting | IC50 [µM] |
| --- | --- | --- | --- | --- | --- |
| C1=Cc2ccccc2N(Cc2cc(-c3ccccc3)no2)c2ccccc21 | Urease | enzyme activity, inhibitor | – | – | > 27 |
| CN1CCCN(c2cnc3c(cc(C(=O)NCc4ccc(Cl)cc4)c(=O)n3CC(=O)N3CC(C)(F)C3)n2)C1=O | DNA polymerase catalytic subunit | enzyme activity | – | single determination | 3.04 |
| CC(C)(COC(=O)/C=C/c1ccc2c(c1)OCO2)CC1=C(O)C(=O)c2ccccc2C1=O | MAL12 | enzyme activity, inhibitor | – | – | 28.8 |
| Cc1cccc(-c2cc(CN3c4ccccc4C=Cc4ccccc43)on2)c1 | Urease | enzyme activity, inhibitor | – | – | 9.48 |
| COc1ccc(CNc2nc3c(cnn3C(C)(C)C)c(=O)n2Cc2cccc(F)c2)cn1 | PDE1C | enzyme activity, inhibitor, radiometric | – | – | 0.0042 |
